Measurements of several laboratories.
Protocols differ between the studies behind these lines. Values joined by “and” are separate records of one study, mostly repeats; a detail may differ.

COc1cc(C(=O)OCCCN2CCCN(CCCOC(=O)c3cc(OC)c(OC)c(OCc4ccc([N+](=O)[O-])cc4)c3)CC2)cc(OC)c1OC gave a concentration of 3.83 ng/mL (mouse CD-1 male, trigeminal ganglion; subcutaneous, 30 mg/kg, 24 h).
For C#CCN1C(=O)C(O)(C(=O)O)Oc2cc(F)ccc21 (stereo not shown), the inhibition was 99.2% (Arabidopsis thaliana; root length; Col-0; 100 µg/mL, 7 days, seed germination, dark).
For Cn1cc(-c2cccc(CN3CCC4(CC3)COc3c4ccc4c3CN([C@H]3CCC(=O)NC3=O)C4=O)c2)cn1, “time to tumour volume 2000 mm3” read 43 days and 28 days and 20 days and 57 days and 36 days (Crbn I391V mouse, MC-38 tumour; oral, daily, 30 mg/kg, animals reaching endpoint, with: anti-LAG3 antibody 10 mg/kg i.p. weekly).
The seizure score of N=C(N)NCCCCCCN1CCC23c4c5ccc(O)c4OC2c2nc4ccccc4cc2CC3(O)C1C5 (stereo not shown) is reported as 0 (modified Racine scale; C57BL/6J mice, male; intracerebroventricular, 100 nmol, 5 min; direction not given).

Some of these lines once more:
For C#CCN1C(=O)C(O)(C(=O)O)Oc2cc(F)ccc21 (stereo not shown), the inhibition was 99.2% (Arabidopsis thaliana; root length; Col-0; 100 µg/mL, 7 days, seed germination, dark).
